Experimental data collected from several papers.
Target: Histone deacetylase 5 (HDAC5, Homo sapiens, UniProt Q9UQL6)
Sequence of UniProt Q9UQL6 (whole entry, looked up): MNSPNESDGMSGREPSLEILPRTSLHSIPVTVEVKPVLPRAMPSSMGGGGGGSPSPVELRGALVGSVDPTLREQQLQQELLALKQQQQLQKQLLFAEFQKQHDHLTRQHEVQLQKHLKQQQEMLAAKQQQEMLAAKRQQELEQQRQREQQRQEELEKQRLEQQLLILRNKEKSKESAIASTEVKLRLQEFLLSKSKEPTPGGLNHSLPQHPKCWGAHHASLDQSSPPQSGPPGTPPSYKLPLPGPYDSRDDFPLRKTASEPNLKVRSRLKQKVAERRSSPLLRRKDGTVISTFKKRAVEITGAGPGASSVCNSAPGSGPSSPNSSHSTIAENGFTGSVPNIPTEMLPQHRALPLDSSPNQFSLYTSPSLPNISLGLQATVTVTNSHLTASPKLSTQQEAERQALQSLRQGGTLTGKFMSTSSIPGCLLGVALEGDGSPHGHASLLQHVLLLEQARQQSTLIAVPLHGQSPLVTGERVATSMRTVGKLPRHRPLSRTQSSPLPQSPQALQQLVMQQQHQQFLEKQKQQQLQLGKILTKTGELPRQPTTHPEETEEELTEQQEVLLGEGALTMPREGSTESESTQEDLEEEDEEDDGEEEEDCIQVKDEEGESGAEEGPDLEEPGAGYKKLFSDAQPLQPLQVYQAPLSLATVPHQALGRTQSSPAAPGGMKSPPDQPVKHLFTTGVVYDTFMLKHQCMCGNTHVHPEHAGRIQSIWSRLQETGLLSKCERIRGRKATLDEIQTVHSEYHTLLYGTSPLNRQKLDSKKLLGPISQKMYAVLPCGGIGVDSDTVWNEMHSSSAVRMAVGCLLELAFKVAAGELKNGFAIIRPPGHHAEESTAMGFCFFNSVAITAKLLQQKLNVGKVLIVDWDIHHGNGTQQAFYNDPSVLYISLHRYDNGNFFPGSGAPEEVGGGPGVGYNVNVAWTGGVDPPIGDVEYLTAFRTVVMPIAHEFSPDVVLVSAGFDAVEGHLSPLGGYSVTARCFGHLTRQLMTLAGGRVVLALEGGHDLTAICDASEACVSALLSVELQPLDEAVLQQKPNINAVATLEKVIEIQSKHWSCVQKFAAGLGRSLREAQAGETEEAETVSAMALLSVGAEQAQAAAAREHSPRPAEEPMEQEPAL
Action: inhibitor

Nc1ccc(-c2ccc(F)cc2)cc1NC(=O)C1CCOCC1  IC50 (enzyme activity): > 33.3 µM
O=C1CCC(N2C(=O)c3ccc(N4CCC(C(=O)N5CCC(CCN6CCC(CNC(=O)c7cccc(-c8noc(C(F)(F)F)n8)c7)(c7nc(-c8ccccc8)cs7)CC6)CC5)CC4)cc3C2=O)C(=O)N1 (stereo not shown)  IC50 (enzyme activity): > 10 µM
CCCCCCN(O)C(=O)CCCCC[C@@H]1NC(=O)[C@H]([C@@H](C)CC)NC(=O)[C@H](Cc2ccccc2C(F)(F)F)NC(=O)CCSCc2cccc(n2)CSCCCNC1=O  IC50 (enzyme activity, fluorogenic): > 30 µM
O=C(CCc1ccc(CNC(C(=O)O)C2CCCCC2)cn1)NO (stereo not shown)  IC50 (enzyme activity): > 10 µM
COc1ccc(C(=O)NO)cc1NC(=O)c1ccc(-c2ccccc2)cc1  Kd (competition pulldown; SW620 and MV4-11 lysate; 1 h): > 30.2 µM
Cc1nc2c(F)cc(-c3nc(Nc4ccc(CNC(=O)CCCCCCC(=O)NO)cc4)ncc3F)cc2n1C(C)C  IC50 (enzyme activity): > 10 µM
O=C1CCC(N2C(=O)c3ccc(N4CC(C(=O)N5CC(CN6CCC(CNC(=O)c7cccc(-c8noc(C(F)(F)F)n8)c7)(c7nc(-c8ccccc8)cs7)CC6)C5)C4)cc3C2=O)C(=O)N1 (stereo not shown)  IC50 (enzyme activity): > 10 µM
CC[C@H](C)[C@@H]1NC(=O)[C@H](Cc2ccccc2C(F)(F)F)NC(=O)CCSCc2cccc(n2)CSCCCNC(=O)[C@H](CCCCCC(=O)O)NC1=O  IC50 (enzyme activity, fluorogenic): > 30 µM
O=C(NO)c1cnc(NC2(c3cccc(F)c3)CCCCC2)nc1  Kd (competition pulldown; SW620 and MV4-11 lysate; 1 h): > 30.2 µM
O=C(CCNc1cccc2c1C(=O)N(C1CCC(=O)NC1=O)C2=O)NCCOCCOCCOCCN1CCC(CNC(=O)c2cccc(-c3noc(C(F)(F)F)n3)c2)(c2nc(-c3ccccc3)cs2)CC1 (stereo not shown)  IC50 (enzyme activity): 2.54 µM

For quick reference, copied from above:
Cc1nc2c(F)cc(-c3nc(Nc4ccc(CNC(=O)CCCCCCC(=O)NO)cc4)ncc3F)cc2n1C(C)C  IC50 (enzyme activity): > 10 µM
